Results pooled from the literature.
Each numbered part is a random draw from the data of one study; scales do not carry over between parts.

Block 1
Target: Histone acetyltransferase KAT6A, both winged helices, GST fusion (KAT6A, Homo sapiens, UniProt Q92794, residues 1-181)
Technique: protein binding microarray
Molecule type: double-stranded DNA, one strand shown
Sample: in vitro
Tested at: not given
Notes: 8-mer, flanks averaged, mean of 2 arrays, mostly near background
Relative to: not given
Reading: higher = stronger binding
Construct (chain): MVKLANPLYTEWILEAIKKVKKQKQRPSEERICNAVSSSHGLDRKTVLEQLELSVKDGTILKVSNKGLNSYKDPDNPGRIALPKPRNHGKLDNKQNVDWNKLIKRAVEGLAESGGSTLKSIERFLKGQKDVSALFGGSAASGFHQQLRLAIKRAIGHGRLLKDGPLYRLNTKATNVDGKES
Strand	E-score
ACTACCTA	-0.0552
ACCAAAAT	-0.0559
CCGATACC	0.139
AAAATACA	-0.0401
AACGACTT	-0.135
CGACGAAG	0.0269

Block 2
Target: Ras GTPase-activating protein-binding protein 1, full length (G3BP1, Homo sapiens, UniProt Q13283)
Sequence of UniProt Q13283 (whole entry, looked up): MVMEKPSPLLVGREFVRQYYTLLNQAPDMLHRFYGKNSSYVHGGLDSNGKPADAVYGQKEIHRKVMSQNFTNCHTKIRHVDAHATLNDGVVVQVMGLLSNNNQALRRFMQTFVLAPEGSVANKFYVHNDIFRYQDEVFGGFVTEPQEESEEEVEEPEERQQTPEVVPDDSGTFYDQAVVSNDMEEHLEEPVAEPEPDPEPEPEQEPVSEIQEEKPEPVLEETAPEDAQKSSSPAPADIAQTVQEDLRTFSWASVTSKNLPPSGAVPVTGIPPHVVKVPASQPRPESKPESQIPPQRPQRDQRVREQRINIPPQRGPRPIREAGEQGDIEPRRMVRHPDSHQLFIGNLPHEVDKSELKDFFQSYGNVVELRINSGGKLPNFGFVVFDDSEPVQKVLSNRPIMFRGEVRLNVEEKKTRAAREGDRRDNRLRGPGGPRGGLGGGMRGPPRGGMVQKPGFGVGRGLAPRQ
Technique: RNA Bind-n-Seq
Molecule type: RNA
Sample: in vitro
Tested at: 200 nM
Notes: whole 134-nt RNA, ends assumed
Together with: 150 mM LiCl
Relative to: input library
Reading: higher = stronger binding
Library: 7-deaza-guanosine replaces G
Strand	log2 enrichment
GGGAGUUCUACAGUCCGACGAUCUUCCUCAAGUCCUGUGCUACACAUCGUAUGUACCGAAUCGGGCGGCGGCGGAAAGUAUUAUGUUACGCCGUUCGGAUCUGCACUUCCAGCUGGAAUUCUCGGGUGUCAAGG	1.11
GGGAGUUCUACAGUCCGACGAUCCUCAAGUCCUGUGCUACACAUCGUAUGUACCGAAUCGGAGGGGAGGGGAGGGGAAAGUAUUAUGUUACGCCGUUCGGAUCUGCACUUCCAUGGAAUUCUCGGGUGUCAAGG	0.19
GGGAGUUCUACAGUCCGACGAUCCUCAAGUCCUGUGCUACACAUCGUAUGUACCGAAUCGGCCGGGGCCGGGGCCGGAAAGUAUUAUGUUACGCCGUUCGGAUCUGCACUUCCUGGAAUUCUCGGGUGUCAAGG	0.00439
GGGAGUUCUACAGUCCGACGAUCACCAUGCAGGUGGGCAUCUUUGGGAAGUGGGGCAAAAGGGGGAUAGGGAGGGGGGUAACACUUUGGGAACAGGUGGUCCCAGGUCGUUUCUGGAAUUCUCGGGUGUCAAGG	0.489

Block 3
Target: Sal-like protein 4, full length isoform A (SALL4, Homo sapiens, UniProt Q9UJQ4, residues 1-1053)
Sequence of UniProt Q9UJQ4 (whole entry, looked up): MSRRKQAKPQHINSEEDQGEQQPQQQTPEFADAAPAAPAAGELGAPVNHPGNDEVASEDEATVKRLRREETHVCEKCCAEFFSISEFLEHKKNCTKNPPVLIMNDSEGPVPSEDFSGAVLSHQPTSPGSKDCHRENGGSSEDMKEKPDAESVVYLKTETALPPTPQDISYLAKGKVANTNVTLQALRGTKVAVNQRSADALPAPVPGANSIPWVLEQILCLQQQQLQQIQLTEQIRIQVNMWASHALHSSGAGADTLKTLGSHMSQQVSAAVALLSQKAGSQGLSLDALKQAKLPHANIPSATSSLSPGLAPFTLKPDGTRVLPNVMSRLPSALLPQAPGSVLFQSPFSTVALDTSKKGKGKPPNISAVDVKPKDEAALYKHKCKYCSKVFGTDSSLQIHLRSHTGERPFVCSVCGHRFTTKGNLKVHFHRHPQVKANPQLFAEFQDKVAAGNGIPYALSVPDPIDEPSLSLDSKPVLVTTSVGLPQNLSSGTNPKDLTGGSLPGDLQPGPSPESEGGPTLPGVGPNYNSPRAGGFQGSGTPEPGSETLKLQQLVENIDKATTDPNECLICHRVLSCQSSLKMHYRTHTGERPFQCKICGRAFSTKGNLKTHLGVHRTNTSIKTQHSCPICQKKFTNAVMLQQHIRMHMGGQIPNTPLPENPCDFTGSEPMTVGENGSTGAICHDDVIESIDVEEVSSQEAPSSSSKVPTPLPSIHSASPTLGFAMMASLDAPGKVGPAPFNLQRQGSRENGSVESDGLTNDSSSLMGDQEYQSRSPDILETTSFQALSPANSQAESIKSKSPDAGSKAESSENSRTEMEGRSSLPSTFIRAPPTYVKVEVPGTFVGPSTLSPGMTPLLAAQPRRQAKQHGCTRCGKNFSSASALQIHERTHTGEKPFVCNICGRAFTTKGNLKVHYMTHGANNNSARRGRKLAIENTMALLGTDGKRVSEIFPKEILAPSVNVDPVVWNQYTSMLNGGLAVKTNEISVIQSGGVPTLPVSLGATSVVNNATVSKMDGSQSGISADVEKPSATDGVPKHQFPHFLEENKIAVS
Technique: universal PBM
Molecule type: double-stranded DNA, one strand shown
Sample: in vitro
Tested at: 600 nM
Notes: 8-mer, flanks averaged, mean of replicates
Reading: higher = stronger binding
Strand	E-score
AAGACAAC	0.124
AAACTACC	0.145
CCCGGAAC	-0.274
ACGACCCA	-0.142
CTCCACTC	-0.142
AGCGGCAT	-0.118

Single results of other studies
Substance	target	test	system	conditions	how to read	measurement	result
PhoQ, residues 284 288 289 292 302 303 TGYLSA	PhoP, residues 12 14 15 18 19 AWHSL (Escherichia coli, UniProt P23836)	Sort-seq, measured: YFP reporter	E. coli	PhoQ-PhoP variant library, together with: 10 µM Mg2+	relative to: high Mg2+ state, higher = stronger signaling	fold induction	3.01

For quick reference, copied from above (block 1):
Strand	E-score
ACCAAAAT	-0.0559
AAAATACA	-0.0401
CGACGAAG	0.0269
